# Assay results pooled from the literature.
# Several values in a cell are separate wells, animals, samples, runs or records.
# B1: human ILF3; sequence looked up; chain MRPMRIFVNDDRHVMAKHSSVYPTQEELEAVQNMVSHTERALKAVSDWIDEQEKGSSEQAESDNMDVPPEDDSKEGAGEQKTEHMTRTLRGVMRVGLVAKGLLLKGDLDLELVLLCKEKPTTALLDKVADNLAIQLAAVTEDKYEILQSVDDAAIVIKNTKEPPLSLTIHLTSPVVREEMEKVLAGETLSVNDPPDVLDRQKCLAALASLRHAKWFQARANGLKSCVIVIRVLRDLCTRVPTWGPLRGWPLELLCEKSIGTANRPMGAGEALRRVLECLASGIVMPDGSGIYDPCEKEATDAIGHLDRQQREDITQSAQHALRLAAFGQLHKVLGMDPLPSKMPKKPKNENPVDYTVQIPPSTTYAITPMKRPMEEDGEEKSPSKKKKKIQKKEEKAEPPQAMNALMRLNQLKPGLQYKLVSQTGPVHAPIFTMSVEVDGNSFEASGPSKKTAKLHVAVKVLQDMGLPTGAEGRDSSKGEDSAEETEAKPAVVAPAPVVEAVSTPSAAFPSDATAEQGPILTKHGKNPVMELNEKRRGLKYELISETGGSHDKRFVMEVEVDGQKFQGAGSNKKVAKAYAALAALEKLFPDTPLALDANKKKRAPVPVRGGPKFAAKPHNPGFGMGGPMHNEVPPPPNLRGRGRGGSIRGRGRGRGFGGANHGGYMNAGAGYGSYGYGGNSATAGYSQFYSNGGHSGNASGGGGGGGGGSSGYGSYYQGDNYNSPVPPKHAGKKQPHGGQQKPSYGSGYQSHQGQQQSYNQSPYSNYGPPQGKQKGYNHGQGSYSYSNSYNSPGGGGGSDYNYESKFNYSGSGGRSGGNSYGSGGASYNPGSHGGYGGGSGGGSSYQGKQGGYSQSNYNSPGSGQNYSGPPSSYQSSQGGYGRNADHSMNYQYR
# B2: human LCMT1; sequence looked up; chain MATRQRESSITSCCSTSSCDADDEGVRGTCEDASLCKRFAVSIGYWHDPYIQHFVRLSKERKAPEINRGYFARVHGVSQLIKAFLRKTECHCQIVNLGAGMDTTFWRLKDEDLLPSKYFEVDFPMIVTRKLHSIKCKPPLSSPILELHSEDTLQMDGHILDSKRYAVIGADLRDLSELEEKLKKCNMNTQLPTLLIAECVLVYMTPEQSANLLKWAANSFERAMFINYEQVNMGDRFGQIMIENLRRRQCDLAGVETCKSLESQKERLLSNGWETASAVDMMELYNRLPRAEVSRIESLEFLDEMELLEQLMRHYCLCWATKGGNELGLKEITY
Substance,tested on,assay,test system,setting,scale,endpoint,value
milbemycin oxime,Saccharomyces cerevisiae,cell growth,"Pdr5 deleted, Cdr1 overexpressed",2^-5.966 µg/mL,,OD600,1.01 and 0.997 and 0.983
Polymyxin B,Klebsiella pneumoniae,,ATCC 43863,concentration not given,,superoxide dismutase activity,0.481 U and 0.58 U and 0.506 U
Nisin,Bacillus subtilis,bacterial cytological profiling,ATCC 6633,concentration not given,,cell width,0.67 µm and 0.66 µm
B1 (human ILF3),PP6C (human),"co-immunoprecipitation, IP-MS",CYB5R4 knockout cells,concentration not given,relative to: CYB5R4 knockout over parental,log2 fold change,-0.5
colistin,Escherichia coli,broth microdilution,clinical isolate RKI-No_583/16,,,MIC,≤ 0.5 µg/mL
colistin,Pseudomonas aeruginosa,,PA1039 PER-producing isolate,,,MIC,2 µg/mL
"GCCATGCTTT (PNA, CPP-conjugated)",Salmonella enterica serovar Typhimurium,,"peptide, SL1344","10 µM, 8 h",relative to: initial count,log reduction,1.84 log CFU/mL
B2 (human LCMT1),CYB5R4 knockout human cells,"PP4 interaction, 3xFLAG-PP4C IP-MS",,concentration not given,relative to: CYB5R4 KO over parental,log2 fold change,-8.27
"TCATCCGCTG (PNA, CPP-conjugated)",Salmonella enterica serovar Typhimurium,measured: CFU,"peptide, SL1344, Caenorhabditis elegans infection model, worms","4 × MIC, 24 h",relative to: untreated,bacterial load reduction,98.7%
CTCATAGACT,Salmonella enterica serovar Typhimurium,"RNA-seq, measured: rpiA (SL1344_3039)","peptide, SL1344","5 µM, 15 min",relative to: water control,log2 fold change,-2.73

# Repeated from above:
Substance,tested on,assay,test system,setting,scale,endpoint,value
colistin,Escherichia coli,broth microdilution,clinical isolate RKI-No_583/16,,,MIC,≤ 0.5 µg/mL
